Experimental data gathered from unrelated publications.
Lines come from different studies, so protocols differ. ± gives the spread as reported.
CD38: ADP-ribosyl cyclase/cyclic ADP-ribose hydrolase 1 (CD38, Homo sapiens, UniProt P28907)
CXCR4: C-X-C chemokine receptor type 4 (CXCR4, Homo sapiens, UniProt P61073)
PTH1R: Parathyroid hormone/parathyroid hormone-related peptide receptor (PTH1R, Homo sapiens, UniProt Q03431)

`NC(=O)C1CCNC(=O)C(Cc2ccc([N+](=O)[O-])cc2)NC(=O)C(Cc2ccco2)NC(=O)C(CC2CC2)NC(=O)C=CC(=O)N1` (stereo not shown) has an enrichment factor of 1.3 (Serine/threonine-protein kinase pim-1 (PIM1, Homo sapiens, UniProt P11309); DNA-templated library selection; one selection round).
`CC1=CC(C)(C)N=C(Nc2nc(C)c3cc(C)cc(C)c3n2)N1` gave a remaining activity of 22.7 ± 0.4% (CD38; hydrolase activity, fluorometric; 50 µM, together with: ε-NAD+ substrate; relative to: untreated).
For `Cc1c2c(cc3oc(=O)cc(-c4ccc(O)cc4)c13)C(=O)c1cccc(O)c1C2=O`, the inhibition was 34.9 ± 0.41% (mushroom tyrosinase; enzyme activity; 50 µg/mL, together with: L-DOPA).
With `CCCCCCCC/C=C\CCCCCCCC(=O)O[C@@H]1C=CCO[C@@H]1COP(=O)(O)S` (stereo partly shown) the Emax was 32% (Lysophosphatidic acid receptor 6 (Homo sapiens, UniProt P43657); agonist, TGFα shedding).
With `O=C(O)[C@H]1O[C@@H](O[C@H]2C=Cc3c(cc4ccc5cccc6c7ccccc7c3c4c56)[C@@H]2O)[C@H](O)[C@@H](O)[C@@H]1O` the kcat/Km was less than 0.0167 M⁻¹ s⁻¹ (UDP-glucuronosyltransferase 1A9 (UGT1A9, Homo sapiens, UniProt O60656); glucuronidation, substrate; UGT-expressing HEK293 homogenate; normalized to UGT expression).
Under IC50, `O=C(Nc1ccc(F)cc1)c1ccc(CNc2ncccn2)cc1` is recorded as “inactive” (CXCR4; arrestin recruitment, DiscoverX).
For `CCCCCC[N+](CCCCCC)(CCCCCC)CCCCCC`, the remaining current was roughly 50% (Potassium channel subfamily K member 2 (Kcnk2, Rattus norvegicus, UniProt Q920B6); ion current, blocker, inside-out patch clamp; Xenopus oocytes; 1 µM, together with: pH jump 8 to 5; relative to: control current).
For `COc1ccc2c(c1)c(CC(=O)[O-])c(C)n2C(=O)c1ccc(Cl)cc1.COc1ccc2c(c1)c(CC(=O)[O-])c(C)n2C(=O)c1ccc(Cl)cc1.[Co+2].c1c[nH]cn1.c1c[nH]cn1`, “anodic peak potential shift” read 5 mV (calf thymus DNA; cyclic voltammetry; DMSO/buffer; Co(II)/Co(I) couple; relative to: without DNA).
`CC(C)(C)CCN1C[C@@H]2[C@@H](CNC(=O)c3cc(Cl)cc(Cl)c3)[C@@H]2C1.Cl`: “activation slope factor k” 7.91 ± 0.32 mV (Voltage-dependent L-type calcium channel subunit alpha-1F, exon 47 deletion isoform (Homo sapiens, UniProt O60840); calcium current, whole-cell patch clamp; HEK-293T cells; 50 nM).
For `CC[C@H](C)[C@H](NC(=O)[C@H](CCC(=O)O)NC(=O)[C@H](CO)NC(=O)[C@@H](NC(=O)[C@@H](N)CO)C(C)C)C(=O)N[C@@H](CCC(N)=O)C(=O)N[C@@H](CC(C)C)C(=O)N[C@@H](CCSC)C(=O)N[C@@H](Cc1c[nH]cn1)C(=O)N[C@@H](CC(N)=O)C(=O)N[C@@H](CC(C)C)C(=O)NCC(=O)N[C@@H](CCCCN)C(=O)N[C@@H](Cc1c[nH]cn1)C(=O)N[C@@H](CC(C)C)C(=O)N[C@@H](CC(N)=O)C(=O)N[C@@H](CO)C(=O)N[C@@H](CCSC)C(=O)N[C@@H](CCC(=O)O)C(=O)N[C@@H](CCCNC(=N)N)C(=O)N[C@H](C(=O)N[C@@H](CCC(=O)O)C(=O)N[C@@H](Cc1c[nH]c2ccccc12)C(=O)N[C@@H](CC(C)C)C(=O)N[C@@H](CCCNC(=N)N)C(=O)N[C@@H](CCCCN)C(=O)N[C@@H](CCCCN)C(=O)N[C@@H](CC(C)C)C(=O)N[C@@H](CCC(N)=O)C(=O)N[C@@H](CC(=O)O)C(=O)N[C@H](C(=O)N[C@@H](Cc1c[nH]cn1)C(=O)N[C@@H](CC(N)=O)C(=O)N[C@@H](Cc1ccccc1)C(=O)N[C@@H](CCCCNC(=O)c1ccc2c(c1)C1(OC2=O)c2ccc(N(C)C)cc2Oc2cc(N(C)C)ccc21)C(N)=O)C(C)C)C(C)C`, the kon was 420000 ± 80000 M⁻¹ s⁻¹ (PTH1R; binding, NanoBRET; pH 6.5, MES buffer).
For `CC(=O)NCCN(CCC(=O)NCCN(CCC(=O)NCCN(CCC(=O)NCCC(N)=O)C(=O)[C@@H](N)CCCNC(=N)N)C(=O)[C@@H](N)Cc1ccccc1)C(=O)[C@@H](N)Cc1ccccc1`, the non-electrostatic ΔG° was -7.84 ± 0.143 kcal/mol (HIV-1 TAR RNA; extrapolated to 1 M KCl).
`O=C1NC(=O)C(=Cc2ccc(-c3cccc(C(F)(F)F)c3)o2)S1` has a remaining activity of 80.9 ± 4.4% (CD38; hydrolase activity, fluorometric; 50 µM, together with: ε-NAD+ substrate; relative to: untreated).
For `N=C(CCl)NCCC[C@H](NC(=O)c1ccc(/N=N\c2ccccc2)cc1)c1nc2ccccc2[nH]1`, “IC50 fold difference” read greater than 10 fold (Protein-arginine deiminase type-2 (PADI2, Homo sapiens, UniProt Q9Y2J8); inhibitor, competitive ABPP; relative to: other photoisomer over this photoisomer).
`CC(=O)NCCN(CCC(=O)NCCN(CCC(=O)NCCN(CCC(=O)NCCC(N)=O)C(=O)[C@@H](N)CCCNC(=N)N)C(=O)[C@@H](N)CCCCN)C(=O)[C@@H](N)Cc1ccccc1` gave a non-electrostatic ΔG° of -6.64 ± 0.143 kcal/mol (HIV-1 TAR RNA; extrapolated to 1 M KCl).
For `O=C(c1cc2c(s1)CCCCC2)N1CCC(n2c(=O)[nH]c3ccccc32)CC1`, activation read “no effect” (Short transient receptor potential channel 6 (Trpc6, Mus musculus, UniProt Q61143); ion current, agonist, whole-cell patch clamp; concentration not given, wild type, together with: DTNB).
The PKA activation of `C=C[C@]12CCC(=O)C=C1CC[C@H]1[C@@H]3CC[C@H](C(C)=O)[C@@]3(C)CC[C@@H]12` is reported as 159 ± 8.94% (Membrane progesterone receptor epsilon (Paqr9, Mus musculus, UniProt Q6TCG2); pPKA/PKA immunoblot; MDA-MB-231 expressing Paqr9-GFP; 100 nM, 20 min; relative to: control).
For `COc1c2c(cc3oc(=O)cc(-c4ccc(O)cc4)c13)C(=O)c1cc(C)cc(O)c1C2=O`, the inhibition was 44.58 ± 0.25% (mushroom tyrosinase; enzyme activity; 50 µg/mL, together with: L-DOPA).
For `CC(=O)NCCN(CC(=O)NCCN(CC(=O)NCCN(CC(=O)NCCC(N)=O)C(=O)C[C@@H](N)CCCNC(=N)N)C(=O)C[C@@H](N)Cc1ccccc1)C(=O)C[C@@H](N)Cc1ccccc1`, “binding free energy ΔG°” read -9.01 ± 0.287 kcal/mol (HIV-1 TAR RNA; 25 °C).
The specific activity of `CCCCCCC(=O)Nc1ccc(OC)nc1C` is reported as 180 pmol/min/µg (Liver carboxylesterase 1 (CES1, Homo sapiens, UniProt P23141); substrate; 50 µM, pH 8, 37 °C, enzyme purity 25%).
The Hill coefficient of `O=C(O)CCn1c2ccc(Cl)cc2c2cc(Cl)ccc21` is reported as 1 ± 0.4 (Kcnk10 (Mus musculus, UniProt Q8BUW1); ion current, two-electrode voltage clamp; Xenopus oocytes).
`CC(=O)N[C@H](Cc1ccc2ccccc2c1)C(=O)N[C@H](Cc1ccc(Cl)cc1)C(=O)N[C@H](Cc1cccnc1)C(=O)N[C@@H](CO)C(=O)N[C@@H](Cc1ccc[n+](C)c1)C(=O)N[C@H](CCCCNC(C)C)C(=O)N[C@@H](CC(C)C)C(=O)N[C@@H](CCCCNC(C)C)C(=O)N1CCC[C@H]1C(=O)N[C@H](C)C(N)=O` gave an EC50 of 5.97 µM (Gonadotropin-releasing hormone receptor (Gallus gallus, UniProt Q9DDC9); inositol phosphate production, agonist; COS-7 transfected; 1 h).
`COc1ccccc1-c1nnc2n1N=C(c1ccc(N(C)C)cc1)CS2` gave an Emax of roughly 25% (CXCR4; β-arrestin recruitment, agonist; U2OS).
With `CC(=O)NCCN(CCC(=O)NCCN(CCC(=O)NCCN(CCC(=O)NCCC(N)=O)C(=O)[C@@H](N)CCCNC(=N)N)C(=O)[C@@H](N)CCCNC(=N)N)C(=O)[C@@H](N)Cc1ccccc1` the non-electrostatic TΔS° was -4.57 ± 0.311 kcal/mol (HIV-1 TAR RNA).
Under “potency fold change”, `N=C(N)NCCC[C@H](NC(=O)[C@H](Cc1ccccc1)NC(=O)[C@@H](N)CO)C(=O)N[C@@H](CC(N)=O)C(N)=O` is recorded as 4 fold (Neuropeptide S receptor (NPSR1, Homo sapiens, UniProt Q6W5P4, N107I); calcium mobilization, agonist; CHO-Gα16 cells; concentration not given; relative to: full-length NPS over compound, fold less potent).
`Cc1cnn2ccc(-c3ccc4c(c3)CN([C@H]3CCC(=O)NC3=O)C4=O)nc12` has a Dmax of 91% (Cereblon/Casein kinase I alpha (CSNK1A1/CRBN, Homo sapiens, UniProt P48729+Q96SW2); protein level, degrader, luciferase; MOLT-4).
`CC[C@H](C)[C@H](NC(=O)[C@H](CO)NC(=O)[C@H](CCCCN)NC(=O)CNC(=O)[C@H](CCCCN)NC(=O)[C@H](CC(=O)O)NC(=O)[C@H](Cc1c[nH]cn1)NC(=O)[C@H](CC(C)C)NC(=O)[C@H](CC(C)C)NC(=O)[C@H](CCC(N)=O)NC(=O)[C@H](Cc1c[nH]cn1)NC(=O)[C@H](CCC(=O)O)NC(=O)[C@H](CO)NC(=O)[C@@H](NC(=O)[C@H](C)N)C(C)C)C(=O)N[C@@H](CCC(N)=O)C(=O)N[C@@H](CO)C(=O)N[C@@H](CCSC)C(=O)N[C@@H](CCC(=O)O)C(=O)N[C@@H](CCCNC(=N)N)C(=O)N[C@H](C(=O)N[C@@H](CCC(=O)O)C(=O)N[C@@H](Cc1c[nH]c2ccccc12)C(=O)N[C@@H](CC(C)C)C(=O)N[C@@H](CCCNC(=N)N)C(=O)N[C@@H](CCCCN)C(=O)N[C@@H](CCCCN)C(=O)N[C@@H](CC(C)C)C(=O)N[C@@H](CCC(N)=O)C(=O)N[C@@H](CC(=O)O)C(=O)N[C@H](C(=O)N[C@@H](Cc1c[nH]cn1)C(=O)N[C@@H](CC(N)=O)C(=O)N[C@@H](Cc1ccccc1)C(=O)N[C@@H](CCCCNC(=O)c1ccc2c(c1)C1(OC2=O)c2ccc(N(C)C)cc2Oc2cc(N(C)C)ccc21)C(N)=O)C(C)C)C(C)C` has an Emax of 105 ± 1% (PTH1R; cAMP formation, agonist, GloSensor; HEK293 GP2.3; relative to: (1-34)).
The total binding of `[3H]C([3H])([3H])c1cnccc1CN1C[C@@H](c2cc(F)c(F)c(F)c2)CC1=O` is reported as 121 fmol/mg (Synaptic vesicle glycoprotein 2A (SV2A, Homo sapiens, UniProt Q7L0J3); radioligand binding, autoradiography; human, post-mortem hippocampus; 2 nM).
With `CC(=O)NCCN(CC(=O)NCCN(CC(=O)NCCN(CC(=O)NCCC(N)=O)C(=O)[C@@H](N)CCCNC(=N)N)C(=O)[C@@H](N)CCCNC(=N)N)C(=O)[C@@H](N)Cc1ccccc1` the non-electrostatic TΔS° was -6.98 ± 0.454 kcal/mol (HIV-1 TAR RNA).

Some of these lines once more:
For `CC(=O)NCCN(CC(=O)NCCN(CC(=O)NCCN(CC(=O)NCCC(N)=O)C(=O)C[C@@H](N)CCCNC(=N)N)C(=O)C[C@@H](N)Cc1ccccc1)C(=O)C[C@@H](N)Cc1ccccc1`, “binding free energy ΔG°” read -9.01 ± 0.287 kcal/mol (HIV-1 TAR RNA; 25 °C).
The specific activity of `CCCCCCC(=O)Nc1ccc(OC)nc1C` is reported as 180 pmol/min/µg (Liver carboxylesterase 1 (CES1, Homo sapiens, UniProt P23141); substrate; 50 µM, pH 8, 37 °C, enzyme purity 25%).
The Hill coefficient of `O=C(O)CCn1c2ccc(Cl)cc2c2cc(Cl)ccc21` is reported as 1 ± 0.4 (Kcnk10 (Mus musculus, UniProt Q8BUW1); ion current, two-electrode voltage clamp; Xenopus oocytes).
`CC(=O)N[C@H](Cc1ccc2ccccc2c1)C(=O)N[C@H](Cc1ccc(Cl)cc1)C(=O)N[C@H](Cc1cccnc1)C(=O)N[C@@H](CO)C(=O)N[C@@H](Cc1ccc[n+](C)c1)C(=O)N[C@H](CCCCNC(C)C)C(=O)N[C@@H](CC(C)C)C(=O)N[C@@H](CCCCNC(C)C)C(=O)N1CCC[C@H]1C(=O)N[C@H](C)C(N)=O` gave an EC50 of 5.97 µM (Gonadotropin-releasing hormone receptor (Gallus gallus, UniProt Q9DDC9); inositol phosphate production, agonist; COS-7 transfected; 1 h).
